Published values from different studies.
Every numbered part comes from another study and shows a few of its results, in no order. Several values in a cell are separate wells, animals, samples, runs or records.
UniProt P35968, sequence (whole entry, looked up): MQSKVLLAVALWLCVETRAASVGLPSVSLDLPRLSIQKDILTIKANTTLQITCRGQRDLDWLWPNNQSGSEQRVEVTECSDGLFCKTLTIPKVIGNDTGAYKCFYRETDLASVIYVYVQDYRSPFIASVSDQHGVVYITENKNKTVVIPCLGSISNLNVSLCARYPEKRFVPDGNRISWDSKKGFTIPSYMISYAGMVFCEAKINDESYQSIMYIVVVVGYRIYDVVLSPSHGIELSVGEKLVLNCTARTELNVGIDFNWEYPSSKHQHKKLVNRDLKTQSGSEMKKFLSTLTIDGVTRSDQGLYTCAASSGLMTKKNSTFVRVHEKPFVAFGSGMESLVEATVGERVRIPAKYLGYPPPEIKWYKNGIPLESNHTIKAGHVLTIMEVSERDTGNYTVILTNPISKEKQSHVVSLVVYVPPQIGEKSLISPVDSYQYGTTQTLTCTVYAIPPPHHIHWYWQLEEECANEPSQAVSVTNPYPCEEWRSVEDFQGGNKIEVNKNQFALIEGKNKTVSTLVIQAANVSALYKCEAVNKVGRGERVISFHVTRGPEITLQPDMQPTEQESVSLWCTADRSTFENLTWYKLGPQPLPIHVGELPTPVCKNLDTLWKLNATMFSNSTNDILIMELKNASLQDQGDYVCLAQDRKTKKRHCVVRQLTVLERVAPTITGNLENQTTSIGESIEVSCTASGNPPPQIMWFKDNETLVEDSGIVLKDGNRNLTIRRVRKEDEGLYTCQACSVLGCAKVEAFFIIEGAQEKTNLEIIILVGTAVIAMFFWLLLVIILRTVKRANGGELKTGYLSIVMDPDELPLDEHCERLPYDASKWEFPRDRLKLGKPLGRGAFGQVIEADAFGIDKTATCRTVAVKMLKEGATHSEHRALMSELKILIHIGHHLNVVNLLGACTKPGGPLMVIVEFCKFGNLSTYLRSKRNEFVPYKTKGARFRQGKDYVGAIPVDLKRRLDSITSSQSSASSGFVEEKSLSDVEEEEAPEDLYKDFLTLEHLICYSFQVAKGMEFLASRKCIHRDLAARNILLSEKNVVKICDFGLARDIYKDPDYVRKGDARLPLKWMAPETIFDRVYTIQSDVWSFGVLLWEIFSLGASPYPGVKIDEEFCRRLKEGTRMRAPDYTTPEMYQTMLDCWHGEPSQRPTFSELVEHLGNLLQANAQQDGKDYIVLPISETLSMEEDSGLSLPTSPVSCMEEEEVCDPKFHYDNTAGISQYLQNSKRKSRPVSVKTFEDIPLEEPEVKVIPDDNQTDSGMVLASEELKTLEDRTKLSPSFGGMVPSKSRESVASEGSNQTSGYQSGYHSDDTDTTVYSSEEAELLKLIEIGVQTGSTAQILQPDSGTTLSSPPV
UniProt Q13237, sequence (whole entry, looked up): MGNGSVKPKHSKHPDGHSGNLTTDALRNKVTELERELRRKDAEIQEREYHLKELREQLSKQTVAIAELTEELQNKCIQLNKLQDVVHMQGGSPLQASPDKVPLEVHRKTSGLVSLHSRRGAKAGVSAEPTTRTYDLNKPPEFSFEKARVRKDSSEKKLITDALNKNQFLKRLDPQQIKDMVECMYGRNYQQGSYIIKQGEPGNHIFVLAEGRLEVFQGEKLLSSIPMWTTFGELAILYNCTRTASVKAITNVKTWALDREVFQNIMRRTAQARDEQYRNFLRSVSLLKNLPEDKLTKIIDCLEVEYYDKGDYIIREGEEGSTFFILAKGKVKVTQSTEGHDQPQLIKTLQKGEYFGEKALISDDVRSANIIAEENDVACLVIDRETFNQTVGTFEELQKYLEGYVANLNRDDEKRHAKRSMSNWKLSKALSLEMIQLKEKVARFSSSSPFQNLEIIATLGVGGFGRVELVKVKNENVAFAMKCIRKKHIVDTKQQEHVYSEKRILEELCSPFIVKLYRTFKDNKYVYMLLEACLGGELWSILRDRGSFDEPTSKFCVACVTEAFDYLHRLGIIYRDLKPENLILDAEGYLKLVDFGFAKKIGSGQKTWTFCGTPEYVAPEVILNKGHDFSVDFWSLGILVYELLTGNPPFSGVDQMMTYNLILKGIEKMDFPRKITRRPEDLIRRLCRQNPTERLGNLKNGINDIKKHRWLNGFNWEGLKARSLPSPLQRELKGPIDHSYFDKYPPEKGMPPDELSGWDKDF
UniProt Q14012, sequence (whole entry, looked up): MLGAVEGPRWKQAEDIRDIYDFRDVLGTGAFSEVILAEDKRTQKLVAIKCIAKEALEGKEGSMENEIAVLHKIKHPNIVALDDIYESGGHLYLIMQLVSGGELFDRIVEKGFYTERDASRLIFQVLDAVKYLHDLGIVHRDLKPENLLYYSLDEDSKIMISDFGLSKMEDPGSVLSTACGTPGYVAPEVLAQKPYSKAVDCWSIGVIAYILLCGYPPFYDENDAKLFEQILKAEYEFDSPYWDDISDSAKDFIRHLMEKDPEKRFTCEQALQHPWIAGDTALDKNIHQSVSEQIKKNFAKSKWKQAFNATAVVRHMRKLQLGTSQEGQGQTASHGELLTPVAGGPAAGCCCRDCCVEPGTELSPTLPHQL

Sample 1 — observed: enzyme activity; action: inhibitor; tested at: 0.5 µM; reference: control
SMILES: C[C@@H](N)[C@H]1CC[C@H](C(=O)Nc2ccncc2)CC1
target	remaining activity [%]
Myosin-IIIb (MYO3B, Homo sapiens, UniProt Q8WXR4)	83.5
Dual specificity protein kinase CLK3 (CLK3, Homo sapiens, UniProt P49761)	98.6
Tyrosine-protein kinase TXK (TXK, Homo sapiens, UniProt P42681)	98.9
Hepatocyte growth factor receptor (MET, Homo sapiens, UniProt P08581)	94.2
Misshapen-like kinase 1 (MINK1, Homo sapiens, UniProt Q8N4C8)	90
Discoidin domain-containing receptor 2 (DDR2, Homo sapiens, UniProt Q16832)	92
Serine/threonine-protein kinase DCLK2 (DCLK2, Homo sapiens, UniProt Q8N568)	96.7
Cyclin-dependent kinase 1, with cyclin A (CDK1, Homo sapiens, UniProt P06493)	84.9
Calcium/calmodulin-dependent protein kinase type 1B (PNCK, Homo sapiens, UniProt Q6P2M8)	93.9
Cyclin-dependent kinase 9, with cyclin K (CDK9, Homo sapiens, UniProt P50750)	107
Calcium/calmodulin-dependent protein kinase type IV (CAMK4, Homo sapiens, UniProt Q16566)	93.7
Serine/threonine-protein kinase tousled-like 2 (TLK2, Homo sapiens, UniProt Q86UE8)	96.9
Vascular endothelial growth factor receptor 2 (KDR, Homo sapiens, UniProt P35968)	88.8
RAC-beta serine/threonine-protein kinase (AKT2, Homo sapiens, UniProt P31751)	92
cGMP-dependent protein kinase 2 (PRKG2, Homo sapiens, UniProt Q13237)	85.2
Dual specificity mitogen-activated protein kinase kinase 1 (MAP2K1, Homo sapiens, UniProt Q02750)	100
Mitogen-activated protein kinase 14 (MAPK14, Homo sapiens, UniProt Q16539)	105
Ribosomal protein S6 kinase alpha-4 (RPS6KA4, Homo sapiens, UniProt O75676)	96.8
Mitogen-activated protein kinase 1 (MAPK1, Homo sapiens, UniProt P28482)	99.6
Serine/threonine-protein kinase PLK3 (PLK3, Homo sapiens, UniProt Q9H4B4)	86.5
G protein-coupled receptor kinase 4 (GRK4, Homo sapiens, UniProt P32298)	94.6
Serine/threonine-protein kinase PAK 3 (PAK3, Homo sapiens, UniProt O75914)	96.5
Serine/threonine-protein kinase Nek3 (NEK3, Homo sapiens, UniProt P51956)	85.1
Dual specificity protein kinase CLK4 (CLK4, Homo sapiens, UniProt Q9HAZ1)	87.3
Mitogen-activated protein kinase 11 (MAPK11, Homo sapiens, UniProt Q15759)	96.7

Sample 2 — observed: enzyme activity; action: inhibitor; tested at: 77 µM; reference: untreated
Target: DNA polymerase theta, ATPase domain (POLQ, Homo sapiens, UniProt O75417)
UniProt O75417, sequence (whole entry, unmodified, looked up): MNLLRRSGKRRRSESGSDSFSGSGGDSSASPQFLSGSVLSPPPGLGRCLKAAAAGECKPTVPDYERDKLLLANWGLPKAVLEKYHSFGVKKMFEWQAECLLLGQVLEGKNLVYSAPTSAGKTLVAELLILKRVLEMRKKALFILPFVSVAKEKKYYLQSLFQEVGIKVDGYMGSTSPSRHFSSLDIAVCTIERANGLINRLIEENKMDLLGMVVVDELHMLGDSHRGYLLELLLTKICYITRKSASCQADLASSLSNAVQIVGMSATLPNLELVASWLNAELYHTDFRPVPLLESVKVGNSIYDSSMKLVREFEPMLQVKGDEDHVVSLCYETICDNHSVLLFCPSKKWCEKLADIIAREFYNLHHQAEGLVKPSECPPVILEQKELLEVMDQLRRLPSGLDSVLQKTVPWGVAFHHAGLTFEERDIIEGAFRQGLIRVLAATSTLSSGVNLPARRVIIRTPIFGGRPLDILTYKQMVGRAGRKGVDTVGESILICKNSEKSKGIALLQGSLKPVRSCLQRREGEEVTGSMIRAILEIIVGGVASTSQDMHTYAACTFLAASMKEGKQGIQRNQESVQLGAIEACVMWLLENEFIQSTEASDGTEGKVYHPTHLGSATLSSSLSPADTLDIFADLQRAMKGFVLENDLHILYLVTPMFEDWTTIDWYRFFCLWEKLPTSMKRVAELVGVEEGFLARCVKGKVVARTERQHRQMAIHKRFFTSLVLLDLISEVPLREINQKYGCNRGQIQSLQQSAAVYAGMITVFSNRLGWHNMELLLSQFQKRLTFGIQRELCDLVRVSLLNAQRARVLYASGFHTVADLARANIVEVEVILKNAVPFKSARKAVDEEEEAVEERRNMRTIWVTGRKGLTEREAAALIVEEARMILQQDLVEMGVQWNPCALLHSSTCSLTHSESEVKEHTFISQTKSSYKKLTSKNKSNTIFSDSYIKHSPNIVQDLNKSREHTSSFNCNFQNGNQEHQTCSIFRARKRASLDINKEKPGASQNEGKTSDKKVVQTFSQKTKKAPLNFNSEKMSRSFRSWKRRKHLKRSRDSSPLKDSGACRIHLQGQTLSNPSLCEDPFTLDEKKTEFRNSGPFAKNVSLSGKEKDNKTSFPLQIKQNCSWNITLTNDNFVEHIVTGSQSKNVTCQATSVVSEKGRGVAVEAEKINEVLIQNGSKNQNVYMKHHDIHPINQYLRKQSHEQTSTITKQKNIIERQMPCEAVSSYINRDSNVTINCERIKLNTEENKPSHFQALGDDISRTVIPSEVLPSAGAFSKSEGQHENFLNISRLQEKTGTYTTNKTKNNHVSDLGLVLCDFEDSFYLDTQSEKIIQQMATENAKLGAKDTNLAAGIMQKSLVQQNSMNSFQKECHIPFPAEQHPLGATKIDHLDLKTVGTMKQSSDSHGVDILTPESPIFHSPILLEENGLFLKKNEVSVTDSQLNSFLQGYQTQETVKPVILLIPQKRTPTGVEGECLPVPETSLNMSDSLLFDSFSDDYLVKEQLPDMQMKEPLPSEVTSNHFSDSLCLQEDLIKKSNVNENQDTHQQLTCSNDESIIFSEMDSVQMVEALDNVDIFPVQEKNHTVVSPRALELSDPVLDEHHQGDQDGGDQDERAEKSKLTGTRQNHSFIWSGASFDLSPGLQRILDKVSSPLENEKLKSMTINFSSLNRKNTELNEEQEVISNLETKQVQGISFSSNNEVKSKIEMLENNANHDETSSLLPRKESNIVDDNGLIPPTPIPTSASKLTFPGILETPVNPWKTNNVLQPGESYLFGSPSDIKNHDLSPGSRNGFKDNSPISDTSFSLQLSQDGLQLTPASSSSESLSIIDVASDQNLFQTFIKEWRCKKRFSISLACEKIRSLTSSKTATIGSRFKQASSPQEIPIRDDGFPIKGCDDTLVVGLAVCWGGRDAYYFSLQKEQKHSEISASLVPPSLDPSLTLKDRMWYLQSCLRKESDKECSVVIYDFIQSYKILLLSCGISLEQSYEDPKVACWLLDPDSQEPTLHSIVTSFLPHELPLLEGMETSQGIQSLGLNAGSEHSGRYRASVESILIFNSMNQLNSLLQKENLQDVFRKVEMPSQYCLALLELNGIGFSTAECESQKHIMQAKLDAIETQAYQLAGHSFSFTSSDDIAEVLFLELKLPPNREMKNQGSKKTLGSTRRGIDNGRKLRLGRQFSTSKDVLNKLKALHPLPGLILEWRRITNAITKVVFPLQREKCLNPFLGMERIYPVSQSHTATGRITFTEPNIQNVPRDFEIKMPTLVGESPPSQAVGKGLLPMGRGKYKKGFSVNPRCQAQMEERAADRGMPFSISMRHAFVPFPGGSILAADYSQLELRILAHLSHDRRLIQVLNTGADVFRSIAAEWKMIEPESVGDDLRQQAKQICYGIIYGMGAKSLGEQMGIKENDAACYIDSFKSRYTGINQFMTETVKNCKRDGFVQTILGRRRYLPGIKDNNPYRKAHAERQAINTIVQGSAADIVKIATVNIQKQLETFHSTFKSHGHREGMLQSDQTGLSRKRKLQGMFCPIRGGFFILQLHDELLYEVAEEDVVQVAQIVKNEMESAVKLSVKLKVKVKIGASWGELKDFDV
Structure (SMILES)	remaining activity
N#C/C(=C\c1ccc(O)c(O)c1)C(=O)NCCCNC(=O)/C(C#N)=C/c1ccc(O)c(O)c1	90.3%
COC[C@H](NC(=O)c1cnc(C)s1)C(=O)N[C@@H](COC)C(=O)N[C@@H](Cc1ccccc1)C(=O)[C@@]1(C)CO1	95.5%
C=CC[N+](C)(C)c1ccc(CCC(=O)CCc2ccc([N+](C)(C)CC=C)cc2)cc1	90.3%
CCN1CCCC(OC(=O)C(c2ccccc2)c2ccccc2)C1 (stereo not shown)	102%
CC(C)(C)c1nc2c3cc[nH]c(=O)c3c3cc(F)ccc3c2[nH]1	103%
CCC[C@H](NC(=O)/C(C#N)=C/c1cccc(Br)n1)c1ccccc1	83.9%
CC(C(=O)O)c1ccc(C(=O)c2ccccc2)s1 (stereo not shown)	91.6%
CCC(Cc1c(I)cc(I)c(N)c1I)C(=O)O (stereo not shown)	202%
Nc1nc(OCc2cc(Br)cs2)c2[nH]cnc2n1	82.4%
CC1CC(OC(=O)C(O)c2ccccc2)CC(C)(C)N1C (stereo not shown)	95.5%
O=C1C[C@@H](c2ccc(O)cc2)Oc2cc(O)cc(O)c21	101% and 102%
COC(c1ccccc1)(c1ccccc1)[C@H](Oc1nc(C)cc(C)n1)C(=O)O	94.5%
c1ccc2[nH]c(-c3cscn3)nc2c1	99.4% and 101%
COc1cccc2c1[C@@H]1CN(CCCCn3c(=O)[nH]c4c(sc5ncc(-c6ccccc6)nc54)c3=O)C[C@@H]1CO2	102%
Nc1ccn([C@@H]2O[C@H](CO)[C@@H](O)[C@@H]2O)c(=O)n1	96.1%

Sample 3 — host: human; matrix: microsomes or S9; tested at: 2 µM; time: 0.5 h
SMILES	remaining compound [%]
COC(=O)CC(c1cc(OC)c(O)c(OC)c1)c1c(O)n2ccccc2nc1=O (stereo not shown)	46.5
Cc1nn(CC(=O)NCCN2CCCCC2C)c(C)c1C (stereo not shown)	> 99
COc1cc(-c2nn([C@H]3CC[C@H](N4CCN(C(C)=O)CC4)CC3)c3ncnc(N)c23)ccc1NC(=O)c1cc2ccccc2n1C	93.2
COc1cc(=O)[nH]cc1C(=O)N1CCCC1c1ccc(O)cc1 (stereo not shown)	> 99
CC(C)OC(=O)N1CCC(CNc2ncnc3c(-c4ccc(S(C)(=O)=O)cc4)csc23)CC1	84.7
Cc1c(C#N)c2ccccc2n1Cc1nc(CCc2ccccc2)n[nH]1	6.65
COc1ccc(C2OC(=O)CC2C(=O)N2CCN(c3cc(Cl)ccc3C)CC2)cc1OC (stereo not shown)	27.3
CCCc1nc(-c2ccc3ccccc3c2)cc2ccsc12	87
O=C(c1cn2cc(Cl)ccc2n1)N1CCC(c2ccc(Cc3ccccc3F)cn2)CC1	44.5
CCN(CC)S(=O)(=O)c1ccc(C(=O)Nc2sc3c(c2C(N)=O)CC(C)(C)NC3(C)C)cc1	9.34
CCOc1cc(=O)n2c(c1C(=O)N1CCN(c3cccc(Cl)c3)CC1)CCCC2	67
CCOC(=O)c1ncn2c(N)c(C(N)=O)nnc12	73.9
COc1cc(/C=C/C(=O)O)cc(S(=O)(=O)N(C)CCO)c1OC	85.4
O=C(C1CCCN(S(=O)(=O)c2cc(Cl)ccc2Cl)C1)N1CCCCC1 (stereo not shown)	10.4
Cc1c(C(=O)O)sc2[nH]c(=O)n(CC(C)C)c(=O)c12	79.4
CCn1c(=O)c2sccc2n2c(CCCC(=O)NCCc3ccc(S(N)(=O)=O)cc3)nnc12	94.5
CN(C)CCNC(=O)C1c2ccccc2Oc2ccccc21	77.6

Sample 4 — method: competition with immobilised ligand; tested at: 1 µM
SMILES: O=S(=O)(NC1CCC(c2cc(F)ccc2F)(S(=O)(=O)c2ccc(Cl)cc2)CC1)C(F)(F)F (stereo not shown)
target	assay	remaining binding [%]
Proto-oncogene tyrosine-protein kinase receptor Ret (RET, Homo sapiens, UniProt P07949, M918T)	cell-free assay	92
Serine/threonine-protein kinase N2 (PKN2, Homo sapiens, UniProt Q16513)	cell-free assay	100
Aurora kinase A (AURKA, Homo sapiens, UniProt O14965)	cell-free assay	100
Leukocyte tyrosine kinase receptor (LTK, Homo sapiens, UniProt P29376)	cell-free assay	100
Serine/threonine-protein kinase DCLK2 (DCLK2, Homo sapiens, UniProt Q8N568)	cell-free assay	94
Rho-associated protein kinase 2 (ROCK2, Homo sapiens, UniProt O75116)	cell-free assay	100
MAP kinase-activated protein kinase 2 (MAPKAPK2, Homo sapiens, UniProt P49137)	cell-free assay	93
Cyclin-G-associated kinase (GAK, Homo sapiens, UniProt O14976)	cell-free assay	89
cGMP-dependent protein kinase 2 (PRKG2, Homo sapiens, UniProt Q13237)	cell-free assay	100
Dual serine/threonine and tyrosine protein kinase (DSTYK, Homo sapiens, UniProt Q6XUX3)	cell-free assay	100
Ephrin type-B receptor 2 (EPHB2, Homo sapiens, UniProt P29323)	cell-free assay	100
Dual specificity mitogen-activated protein kinase kinase 6 (MAP2K6, Homo sapiens, UniProt P52564)	cell-free assay	100
Activin receptor type-2B (ACVR2B, Homo sapiens, UniProt Q13705)	binding	95
Serine/threonine-protein kinase TNNI3K (TNNI3K, Homo sapiens, UniProt Q59H18)	cell-free assay	100
Vascular endothelial growth factor receptor 2 (KDR, Homo sapiens, UniProt P35968)	cell-free assay	100
Mast/stem cell growth factor receptor Kit (KIT, Homo sapiens, UniProt P10721, D816H)	cell-free assay	71
Serine/threonine-protein kinase Nek6 (NEK6, Homo sapiens, UniProt Q9HC98)	cell-free assay	100
STE20/SPS1-related proline-alanine-rich protein kinase (STK39, Homo sapiens, UniProt Q9UEW8)	cell-free assay	100
Homeodomain-interacting protein kinase 3 (HIPK3, Homo sapiens, UniProt Q9H422)	cell-free assay	100
Tyrosine-protein kinase Blk (BLK, Homo sapiens, UniProt P51451)	cell-free assay	89
Ephrin type-A receptor 1 (EPHA1, Homo sapiens, UniProt P21709)	cell-free assay	100
Serine/threonine-protein kinase 32A (STK32A, Homo sapiens, UniProt Q8WU08)	cell-free assay	97
Cyclin-dependent kinase 11A (CDK11A, Homo sapiens, UniProt Q9UQ88)	binding	96
Myosin-IIIa (MYO3A, Homo sapiens, UniProt Q8NEV4)	binding	91
Calcium/calmodulin-dependent protein kinase type 1 (CAMK1, Homo sapiens, UniProt Q14012)	cell-free assay	84

A few entries again (sample 1):
target	remaining activity [%]
Cyclin-dependent kinase 1, with cyclin A (CDK1, Homo sapiens, UniProt P06493)	84.9
Calcium/calmodulin-dependent protein kinase type 1B (PNCK, Homo sapiens, UniProt Q6P2M8)	93.9
Cyclin-dependent kinase 9, with cyclin K (CDK9, Homo sapiens, UniProt P50750)	107
Calcium/calmodulin-dependent protein kinase type IV (CAMK4, Homo sapiens, UniProt Q16566)	93.7
Serine/threonine-protein kinase tousled-like 2 (TLK2, Homo sapiens, UniProt Q86UE8)	96.9
Vascular endothelial growth factor receptor 2 (KDR, Homo sapiens, UniProt P35968)	88.8
RAC-beta serine/threonine-protein kinase (AKT2, Homo sapiens, UniProt P31751)	92
cGMP-dependent protein kinase 2 (PRKG2, Homo sapiens, UniProt Q13237)	85.2
Dual specificity mitogen-activated protein kinase kinase 1 (MAP2K1, Homo sapiens, UniProt Q02750)	100
